Assay results gathered from unrelated publications.
Protocols differ between the studies behind these lines. Numbers after ± are the reported error.
Sequence of UniProt Q16706 (whole entry, looked up): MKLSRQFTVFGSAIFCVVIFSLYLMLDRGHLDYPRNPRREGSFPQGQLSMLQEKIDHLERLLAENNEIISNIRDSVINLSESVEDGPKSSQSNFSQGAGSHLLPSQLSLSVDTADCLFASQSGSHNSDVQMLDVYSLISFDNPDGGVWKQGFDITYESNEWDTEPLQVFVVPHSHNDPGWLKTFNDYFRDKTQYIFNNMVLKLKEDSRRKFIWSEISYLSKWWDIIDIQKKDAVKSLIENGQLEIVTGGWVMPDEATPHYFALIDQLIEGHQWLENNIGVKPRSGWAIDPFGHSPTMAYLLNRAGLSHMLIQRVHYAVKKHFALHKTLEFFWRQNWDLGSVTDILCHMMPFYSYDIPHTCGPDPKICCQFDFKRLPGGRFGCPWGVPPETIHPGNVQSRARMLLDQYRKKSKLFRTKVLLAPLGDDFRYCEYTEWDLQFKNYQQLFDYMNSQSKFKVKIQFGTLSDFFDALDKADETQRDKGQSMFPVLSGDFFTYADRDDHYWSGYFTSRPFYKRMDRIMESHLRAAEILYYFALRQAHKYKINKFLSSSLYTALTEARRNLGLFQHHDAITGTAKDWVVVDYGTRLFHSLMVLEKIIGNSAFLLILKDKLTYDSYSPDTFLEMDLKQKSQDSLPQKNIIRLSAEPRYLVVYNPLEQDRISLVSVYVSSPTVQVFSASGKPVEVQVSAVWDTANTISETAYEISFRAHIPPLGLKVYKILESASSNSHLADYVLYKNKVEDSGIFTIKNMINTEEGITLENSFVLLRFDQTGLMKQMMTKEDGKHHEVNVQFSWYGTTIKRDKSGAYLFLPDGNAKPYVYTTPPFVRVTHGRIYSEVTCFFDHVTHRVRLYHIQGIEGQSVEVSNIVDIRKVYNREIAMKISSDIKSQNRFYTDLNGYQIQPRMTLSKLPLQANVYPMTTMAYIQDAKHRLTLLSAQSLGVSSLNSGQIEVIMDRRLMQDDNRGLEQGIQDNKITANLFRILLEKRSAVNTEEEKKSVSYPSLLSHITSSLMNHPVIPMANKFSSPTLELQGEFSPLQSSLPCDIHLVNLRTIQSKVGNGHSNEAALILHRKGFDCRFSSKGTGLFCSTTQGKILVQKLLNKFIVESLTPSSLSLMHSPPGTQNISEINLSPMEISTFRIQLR
Sequence of UniProt O14939 (whole entry, looked up): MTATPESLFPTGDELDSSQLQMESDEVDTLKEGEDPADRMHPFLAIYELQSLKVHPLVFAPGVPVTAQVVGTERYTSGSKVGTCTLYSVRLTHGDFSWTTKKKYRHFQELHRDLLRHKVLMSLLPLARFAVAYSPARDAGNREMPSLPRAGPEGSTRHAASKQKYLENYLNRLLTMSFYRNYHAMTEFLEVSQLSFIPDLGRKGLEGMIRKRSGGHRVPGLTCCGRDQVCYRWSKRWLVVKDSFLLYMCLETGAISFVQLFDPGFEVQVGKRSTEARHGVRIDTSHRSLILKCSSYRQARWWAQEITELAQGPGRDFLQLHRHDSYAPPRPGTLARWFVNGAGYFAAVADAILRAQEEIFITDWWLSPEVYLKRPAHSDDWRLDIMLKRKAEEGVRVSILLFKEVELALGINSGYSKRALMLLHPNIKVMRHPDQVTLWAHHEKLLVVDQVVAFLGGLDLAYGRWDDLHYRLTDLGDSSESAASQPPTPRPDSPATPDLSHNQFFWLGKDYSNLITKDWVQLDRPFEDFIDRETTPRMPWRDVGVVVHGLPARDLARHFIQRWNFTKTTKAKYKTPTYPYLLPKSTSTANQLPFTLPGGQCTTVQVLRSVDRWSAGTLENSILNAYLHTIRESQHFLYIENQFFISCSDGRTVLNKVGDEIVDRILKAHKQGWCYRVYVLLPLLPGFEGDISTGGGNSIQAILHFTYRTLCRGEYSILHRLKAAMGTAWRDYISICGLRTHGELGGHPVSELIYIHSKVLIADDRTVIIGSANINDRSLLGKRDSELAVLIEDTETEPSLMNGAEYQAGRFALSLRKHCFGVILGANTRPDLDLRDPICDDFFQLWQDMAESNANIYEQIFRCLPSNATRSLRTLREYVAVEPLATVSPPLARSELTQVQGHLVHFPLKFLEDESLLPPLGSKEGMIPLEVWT
Sequence of UniProt P08684 (whole entry, looked up): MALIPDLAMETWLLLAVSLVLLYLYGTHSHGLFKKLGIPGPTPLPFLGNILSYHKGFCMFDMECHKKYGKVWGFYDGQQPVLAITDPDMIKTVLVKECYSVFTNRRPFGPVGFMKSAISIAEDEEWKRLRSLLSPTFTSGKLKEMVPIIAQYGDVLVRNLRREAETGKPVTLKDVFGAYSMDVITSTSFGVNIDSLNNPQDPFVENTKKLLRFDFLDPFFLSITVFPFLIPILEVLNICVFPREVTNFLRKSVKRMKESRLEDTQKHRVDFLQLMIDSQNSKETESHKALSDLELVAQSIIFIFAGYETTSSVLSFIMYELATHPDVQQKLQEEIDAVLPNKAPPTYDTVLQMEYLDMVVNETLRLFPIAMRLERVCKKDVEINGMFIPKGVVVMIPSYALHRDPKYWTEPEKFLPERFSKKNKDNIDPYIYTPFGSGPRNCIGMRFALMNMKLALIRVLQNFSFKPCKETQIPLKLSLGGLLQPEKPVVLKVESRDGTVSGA
Sequence of UniProt P05804 (whole entry, looked up): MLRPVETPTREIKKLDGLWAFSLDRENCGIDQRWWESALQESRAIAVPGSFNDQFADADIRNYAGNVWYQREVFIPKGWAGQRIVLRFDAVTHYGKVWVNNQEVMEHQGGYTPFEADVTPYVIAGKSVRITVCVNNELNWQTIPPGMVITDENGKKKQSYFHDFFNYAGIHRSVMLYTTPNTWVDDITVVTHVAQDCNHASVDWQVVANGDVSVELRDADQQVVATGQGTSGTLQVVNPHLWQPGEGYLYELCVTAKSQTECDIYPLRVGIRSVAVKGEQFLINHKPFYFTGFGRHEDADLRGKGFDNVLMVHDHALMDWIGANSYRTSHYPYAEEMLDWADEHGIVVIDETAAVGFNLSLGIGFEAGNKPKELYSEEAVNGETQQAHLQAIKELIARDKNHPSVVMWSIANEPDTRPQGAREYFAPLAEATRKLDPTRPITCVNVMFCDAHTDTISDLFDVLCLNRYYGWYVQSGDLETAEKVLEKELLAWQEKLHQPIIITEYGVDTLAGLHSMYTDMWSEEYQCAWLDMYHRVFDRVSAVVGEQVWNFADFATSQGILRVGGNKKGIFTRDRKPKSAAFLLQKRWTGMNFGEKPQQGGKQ
Sequence of UniProt Q8R146 (whole entry, looked up): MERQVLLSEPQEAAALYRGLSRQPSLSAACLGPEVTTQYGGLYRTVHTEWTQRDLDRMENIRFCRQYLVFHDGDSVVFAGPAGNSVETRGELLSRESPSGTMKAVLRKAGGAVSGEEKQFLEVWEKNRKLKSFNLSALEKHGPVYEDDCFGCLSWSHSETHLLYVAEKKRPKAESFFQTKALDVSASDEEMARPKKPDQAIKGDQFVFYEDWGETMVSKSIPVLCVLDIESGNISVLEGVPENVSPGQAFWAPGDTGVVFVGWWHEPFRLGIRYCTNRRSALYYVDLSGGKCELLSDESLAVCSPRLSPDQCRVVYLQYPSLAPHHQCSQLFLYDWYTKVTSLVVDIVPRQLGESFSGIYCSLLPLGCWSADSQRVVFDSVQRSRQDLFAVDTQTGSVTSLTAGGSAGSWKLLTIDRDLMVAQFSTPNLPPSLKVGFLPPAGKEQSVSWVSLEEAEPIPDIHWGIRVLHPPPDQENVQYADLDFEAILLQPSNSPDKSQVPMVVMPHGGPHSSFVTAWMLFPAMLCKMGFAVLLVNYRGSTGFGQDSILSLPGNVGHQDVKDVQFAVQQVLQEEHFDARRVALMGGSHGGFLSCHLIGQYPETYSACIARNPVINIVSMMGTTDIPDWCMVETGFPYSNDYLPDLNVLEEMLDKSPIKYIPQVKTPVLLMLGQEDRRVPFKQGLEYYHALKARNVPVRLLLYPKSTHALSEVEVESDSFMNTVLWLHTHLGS
Sequence of UniProt P41020 (whole entry, looked up): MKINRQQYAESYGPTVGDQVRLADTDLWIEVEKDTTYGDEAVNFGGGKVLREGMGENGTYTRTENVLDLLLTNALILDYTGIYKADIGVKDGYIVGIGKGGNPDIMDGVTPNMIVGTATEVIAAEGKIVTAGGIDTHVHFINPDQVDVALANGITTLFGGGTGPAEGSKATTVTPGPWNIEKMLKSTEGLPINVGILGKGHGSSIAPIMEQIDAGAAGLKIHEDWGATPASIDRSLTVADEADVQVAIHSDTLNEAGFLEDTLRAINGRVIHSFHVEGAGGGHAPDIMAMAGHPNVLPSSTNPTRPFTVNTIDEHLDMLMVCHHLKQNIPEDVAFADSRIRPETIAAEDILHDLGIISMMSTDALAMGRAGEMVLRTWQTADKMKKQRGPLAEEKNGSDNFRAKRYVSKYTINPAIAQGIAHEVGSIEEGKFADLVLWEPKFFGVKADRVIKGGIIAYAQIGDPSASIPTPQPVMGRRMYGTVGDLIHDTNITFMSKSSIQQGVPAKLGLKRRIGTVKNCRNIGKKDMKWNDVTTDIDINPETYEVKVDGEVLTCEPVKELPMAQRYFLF

Structure (SMILES)	target	test	system	setting	IC50
O=C(O)CNCP(=O)(O)O	IMP-28 metallo-beta-lactamase	enzyme activity, inhibitor, FC5 fluorescent substrate		60 pM enzyme, 1 µM ZnSO4	> 200000 nM
CCn1nnc(-c2ccccc2NC(=O)[C@H](C)CS)n1	VIM-2 (Escherichia coli, UniProt Q5U7L7)	enzyme activity, inhibitor, fluorescence		with preincubation	60.3 nM
CC(C)(C)c1ccc(NC(=O)NCCC[C@H](CNCc2ccccc2)C[C@H]2O[C@@H](n3cnc4c(N)ncnc43)[C@H](O)[C@@H]2O)cc1	EHMT2 (Homo sapiens, UniProt Q96KQ7)	enzyme activity, inhibitor, radiometric			> 50000 nM
CC(C)CC(O)(CC(C)C)c1cn(C(=O)N2CCCC2)nn1	Acylamino-acid-releasing enzyme (Apeh, Mus musculus, UniProt Q8R146)	inhibitor, competitive ABPP	mouse T-cell proteome	30 min, 37 °C	5 nM
O=C(O)/C=C/c1ccc(O)cc1	α-amylase	inhibitor, DNS			85 µg/mL
C[C@]1(COC(=O)c2ccc(O)c(O)c2)[C@H](C(=O)O)N2C(=O)/C(=C/c3ccccn3)[C@H]2S1(=O)=O	OXA-23 (Acinetobacter baumannii, UniProt Q9L4P2)	inhibitor		added: nitrocefin	51 ± 12 nM
CN(C)c1nc2sc3c(N4CCNCC4)nnnc3c2c2c1CCCC2	Beta-glucuronidase (uidA, Escherichia coli, UniProt P05804)	enzyme activity, inhibitor			70 nM
Nc1nc(N)c2nc(CNc3ccc(C4(O)CNC4=O)cc3)cnc2n1 (stereo not shown)	Dihydrofolate synthase/folylpolyglutamate synthase (Escherichia coli, UniProt P08192)	enzyme activity, inhibitor			2600 nM
O=C(NCCN1CCC2(CC1)C(=O)NCN2C(=O)C1CCC1)c1ccc2ccccc2c1	Phospholipase D2 (Homo sapiens, UniProt O14939)	enzyme activity, inhibitor			320 nM
NC[C@@H]1[C@@H](O)[C@@H](O)[C@H]2[C@H](O)CCCN21	Alpha-mannosidase 2 (Homo sapiens, UniProt Q16706)	enzyme activity, inhibitor, 4-MU fluorogenic		added: Man-α-4MU 5 mM	650 nM
C=C1C(=O)N[C@@H](C)C(=O)N(C)[C@@H](C)C(=O)N[C@@H]([C@H](OC(=O)[C@@H](NC(C)=O)[C@H](O)C(C)C)C(C)C)C(=O)N(C)[C@@H]([C@@H](C)OC)C(=O)O[C@H](C)[C@H](NC(C)=O)C(=O)O[C@H](Cc2ccccc2)C(=O)N1C	Guanine nucleotide binding protein q polypeptide (Cricetulus griseus, UniProt Q3HR10)	inositol phosphate, antagonist, TR-FRET			93.3 nM
CN(Cc1ccccc1)CP(=O)(O)O	Urease subunit alpha (Sporosarcina pasteurii, UniProt P41020)	enzyme activity, inhibitor, indophenol colorimetric		20 min, pH 7.0, 37 °C, added: 50 mM urea	300000 ± 6500 nM
COc1ccc2nc(C)cc(OCC(=O)Nc3cc(C)cc(C)c3)c2c1	Cytochrome P450 3A4 (CYP3A4, Homo sapiens, UniProt P08684)	enzyme activity, inhibitor		added: VG substrate	1900 nM
